{"data": "Published values collected from several papers", "note": "Parts stem from different laboratories: compare values within a part only. Several values in a cell are separate wells, animals, samples, runs or records.", "sequence of UniProt Q9P1W9 (whole entry, looked up)": "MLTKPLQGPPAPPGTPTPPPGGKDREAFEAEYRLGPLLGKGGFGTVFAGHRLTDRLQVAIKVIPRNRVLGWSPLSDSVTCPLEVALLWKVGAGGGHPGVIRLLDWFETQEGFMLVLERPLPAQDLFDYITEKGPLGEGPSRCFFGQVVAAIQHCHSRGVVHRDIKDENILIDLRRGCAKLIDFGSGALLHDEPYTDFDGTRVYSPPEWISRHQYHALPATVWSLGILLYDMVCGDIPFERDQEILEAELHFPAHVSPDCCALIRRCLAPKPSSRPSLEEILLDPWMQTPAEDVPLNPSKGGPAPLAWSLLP", "sequence of UniProt Q04912 (whole entry, looked up)": "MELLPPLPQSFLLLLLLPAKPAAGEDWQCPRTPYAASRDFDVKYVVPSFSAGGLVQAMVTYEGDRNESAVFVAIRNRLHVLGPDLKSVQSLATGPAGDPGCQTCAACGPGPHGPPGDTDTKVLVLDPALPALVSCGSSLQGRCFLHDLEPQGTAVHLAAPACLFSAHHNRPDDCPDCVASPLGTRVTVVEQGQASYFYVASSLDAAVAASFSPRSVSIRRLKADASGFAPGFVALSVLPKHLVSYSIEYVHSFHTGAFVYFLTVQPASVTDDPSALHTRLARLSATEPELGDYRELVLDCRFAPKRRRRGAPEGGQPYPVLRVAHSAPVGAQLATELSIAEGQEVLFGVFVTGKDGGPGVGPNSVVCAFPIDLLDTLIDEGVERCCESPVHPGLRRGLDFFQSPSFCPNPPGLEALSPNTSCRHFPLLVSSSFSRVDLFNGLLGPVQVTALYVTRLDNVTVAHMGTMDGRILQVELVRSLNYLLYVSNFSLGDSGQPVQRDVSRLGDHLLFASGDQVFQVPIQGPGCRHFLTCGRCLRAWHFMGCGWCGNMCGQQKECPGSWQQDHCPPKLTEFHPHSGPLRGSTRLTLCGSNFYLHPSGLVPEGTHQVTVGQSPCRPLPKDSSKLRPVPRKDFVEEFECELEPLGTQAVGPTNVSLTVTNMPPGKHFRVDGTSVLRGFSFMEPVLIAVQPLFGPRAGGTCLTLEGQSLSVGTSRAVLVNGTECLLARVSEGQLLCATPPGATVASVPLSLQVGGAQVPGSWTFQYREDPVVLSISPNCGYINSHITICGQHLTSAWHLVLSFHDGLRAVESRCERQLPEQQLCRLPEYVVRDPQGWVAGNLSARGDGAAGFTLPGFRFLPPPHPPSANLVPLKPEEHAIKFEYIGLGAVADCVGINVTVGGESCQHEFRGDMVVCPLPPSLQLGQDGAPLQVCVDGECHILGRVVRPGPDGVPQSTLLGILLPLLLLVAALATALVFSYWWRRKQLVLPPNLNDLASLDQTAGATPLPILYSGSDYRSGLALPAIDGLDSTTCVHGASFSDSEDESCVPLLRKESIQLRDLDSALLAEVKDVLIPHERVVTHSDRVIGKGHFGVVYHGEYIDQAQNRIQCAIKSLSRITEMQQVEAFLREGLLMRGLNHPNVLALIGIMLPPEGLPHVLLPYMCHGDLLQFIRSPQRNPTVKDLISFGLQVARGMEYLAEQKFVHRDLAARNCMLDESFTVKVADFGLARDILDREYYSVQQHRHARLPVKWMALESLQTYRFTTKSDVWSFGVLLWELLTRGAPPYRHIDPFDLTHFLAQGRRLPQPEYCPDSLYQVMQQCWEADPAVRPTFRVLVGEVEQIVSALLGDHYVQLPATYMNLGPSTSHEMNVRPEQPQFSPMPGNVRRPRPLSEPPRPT", "sequence of UniProt Q9BVS4 (whole entry, looked up)": "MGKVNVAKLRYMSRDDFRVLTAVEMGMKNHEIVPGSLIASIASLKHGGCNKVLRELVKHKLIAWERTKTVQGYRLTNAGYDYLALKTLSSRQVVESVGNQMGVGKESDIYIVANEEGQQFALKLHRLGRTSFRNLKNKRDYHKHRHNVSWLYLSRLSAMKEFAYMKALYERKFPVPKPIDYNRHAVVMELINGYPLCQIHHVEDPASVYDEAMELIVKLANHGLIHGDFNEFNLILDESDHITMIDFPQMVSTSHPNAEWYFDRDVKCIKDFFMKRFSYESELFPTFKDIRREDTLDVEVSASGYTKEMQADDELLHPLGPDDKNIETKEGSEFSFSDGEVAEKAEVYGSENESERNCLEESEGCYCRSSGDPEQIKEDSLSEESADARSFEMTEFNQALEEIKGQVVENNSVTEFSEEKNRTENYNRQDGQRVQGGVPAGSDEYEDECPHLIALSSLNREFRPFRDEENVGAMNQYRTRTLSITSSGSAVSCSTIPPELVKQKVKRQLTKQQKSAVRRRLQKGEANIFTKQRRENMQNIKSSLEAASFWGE"}
{"data": "Study 1", "target": "DNA polymerase theta, ATPase domain (POLQ, Homo sapiens, UniProt O75417)", "read-out": "enzyme activity", "action": "inhibitor", "concentration": "77 µM", "reference": "untreated", "sequence of UniProt O75417 (whole entry, unmodified, looked up)": "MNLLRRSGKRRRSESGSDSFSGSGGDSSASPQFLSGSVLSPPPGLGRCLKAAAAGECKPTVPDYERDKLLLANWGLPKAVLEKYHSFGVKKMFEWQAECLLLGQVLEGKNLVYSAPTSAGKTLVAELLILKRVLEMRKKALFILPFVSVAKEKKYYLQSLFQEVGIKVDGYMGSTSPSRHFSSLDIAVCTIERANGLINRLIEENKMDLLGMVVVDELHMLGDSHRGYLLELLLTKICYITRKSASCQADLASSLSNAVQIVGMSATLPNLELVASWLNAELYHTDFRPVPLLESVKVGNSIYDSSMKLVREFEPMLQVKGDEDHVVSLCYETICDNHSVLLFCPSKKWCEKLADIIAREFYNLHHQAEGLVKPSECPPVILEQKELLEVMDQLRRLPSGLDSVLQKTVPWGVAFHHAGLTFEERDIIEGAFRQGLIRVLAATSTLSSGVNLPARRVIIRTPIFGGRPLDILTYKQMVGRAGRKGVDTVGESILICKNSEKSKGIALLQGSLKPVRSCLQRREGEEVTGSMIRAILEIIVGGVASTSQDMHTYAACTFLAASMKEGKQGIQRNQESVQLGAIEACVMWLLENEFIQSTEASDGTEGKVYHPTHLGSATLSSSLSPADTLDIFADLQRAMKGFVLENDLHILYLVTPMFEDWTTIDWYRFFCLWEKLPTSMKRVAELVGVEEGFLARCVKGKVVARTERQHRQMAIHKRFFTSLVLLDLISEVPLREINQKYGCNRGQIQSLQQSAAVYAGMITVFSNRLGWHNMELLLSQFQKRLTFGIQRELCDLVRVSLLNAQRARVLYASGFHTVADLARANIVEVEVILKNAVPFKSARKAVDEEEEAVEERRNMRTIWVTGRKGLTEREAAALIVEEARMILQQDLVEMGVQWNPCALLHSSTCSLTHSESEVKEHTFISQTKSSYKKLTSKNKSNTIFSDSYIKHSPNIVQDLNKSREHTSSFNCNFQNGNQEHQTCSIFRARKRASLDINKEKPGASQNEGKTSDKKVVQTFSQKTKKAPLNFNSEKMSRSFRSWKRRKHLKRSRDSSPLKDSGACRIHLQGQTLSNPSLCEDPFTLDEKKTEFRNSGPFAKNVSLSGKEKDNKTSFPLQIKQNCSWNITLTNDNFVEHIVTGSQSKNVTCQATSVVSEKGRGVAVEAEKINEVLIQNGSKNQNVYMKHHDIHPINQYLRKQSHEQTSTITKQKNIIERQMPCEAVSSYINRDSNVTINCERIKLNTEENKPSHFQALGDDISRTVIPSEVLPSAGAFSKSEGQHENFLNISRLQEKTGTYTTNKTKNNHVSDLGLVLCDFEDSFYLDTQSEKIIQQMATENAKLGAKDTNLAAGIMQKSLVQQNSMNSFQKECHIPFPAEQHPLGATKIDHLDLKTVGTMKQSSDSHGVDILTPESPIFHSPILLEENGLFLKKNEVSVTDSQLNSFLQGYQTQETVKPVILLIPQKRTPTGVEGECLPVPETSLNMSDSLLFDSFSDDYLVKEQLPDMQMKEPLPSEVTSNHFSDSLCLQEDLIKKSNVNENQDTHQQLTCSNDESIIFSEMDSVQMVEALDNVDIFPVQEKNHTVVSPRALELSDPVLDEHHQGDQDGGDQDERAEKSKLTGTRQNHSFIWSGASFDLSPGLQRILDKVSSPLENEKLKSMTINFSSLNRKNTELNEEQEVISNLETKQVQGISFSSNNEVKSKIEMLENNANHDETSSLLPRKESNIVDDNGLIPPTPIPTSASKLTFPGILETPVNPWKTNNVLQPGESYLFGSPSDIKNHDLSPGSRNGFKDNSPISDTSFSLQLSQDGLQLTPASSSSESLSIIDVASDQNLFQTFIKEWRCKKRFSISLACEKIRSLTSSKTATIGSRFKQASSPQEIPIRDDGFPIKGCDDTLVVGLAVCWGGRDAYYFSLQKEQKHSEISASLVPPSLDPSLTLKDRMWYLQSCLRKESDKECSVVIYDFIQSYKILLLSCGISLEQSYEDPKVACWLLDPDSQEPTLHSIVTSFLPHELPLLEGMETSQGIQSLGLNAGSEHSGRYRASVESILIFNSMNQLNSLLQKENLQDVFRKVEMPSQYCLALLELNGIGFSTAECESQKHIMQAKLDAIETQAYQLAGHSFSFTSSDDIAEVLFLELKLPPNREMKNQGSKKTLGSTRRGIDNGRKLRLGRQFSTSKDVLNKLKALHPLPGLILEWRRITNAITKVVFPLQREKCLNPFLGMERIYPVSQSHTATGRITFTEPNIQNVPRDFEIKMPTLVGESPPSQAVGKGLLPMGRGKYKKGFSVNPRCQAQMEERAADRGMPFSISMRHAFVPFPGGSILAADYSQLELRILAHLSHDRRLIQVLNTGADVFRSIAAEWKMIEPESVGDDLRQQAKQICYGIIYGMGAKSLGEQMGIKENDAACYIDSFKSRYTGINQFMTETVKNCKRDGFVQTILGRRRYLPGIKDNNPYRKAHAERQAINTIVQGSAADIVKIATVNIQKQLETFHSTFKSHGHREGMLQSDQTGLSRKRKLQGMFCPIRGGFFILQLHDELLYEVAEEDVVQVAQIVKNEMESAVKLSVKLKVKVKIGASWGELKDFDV"}
{"Compound": "C#CCn1c(=O)c2c(ncn2C)n(C)c1=O", "remaining activity": "104%"}
{"Compound": "CC(=O)O[C@]1(C(C)=O)CC[C@H]2[C@@H]3C=C(C)C4=CC(=O)CC[C@]4(C)[C@H]3CC[C@@]21C", "remaining activity": "101% and 95.1%"}
{"Compound": "O=Nc1c(-c2c(O)[nH]c3ccccc23)[nH]c2ccccc12", "remaining activity": "112% and 95%"}
{"Compound": "Nc1nc(=O)c2nc(CNc3ccc(C(=O)N[C@@H](CCC(=O)O)C(=O)O)cc3)cnc2[nH]1", "remaining activity": "101%"}
{"Compound": "CNC1CCCN(c2c(F)cc3c(=O)c(C(=O)O)cn(C4CC4)c3c2OC)C1 (stereo not shown)", "remaining activity": "94%"}
{"Compound": "NC(N)=NC(N)=Nc1ccccc1", "remaining activity": "99.6%"}
{"Compound": "CC(N)C(=O)OC(C)(C)Cc1ccc(Cl)cc1 (racemic)", "remaining activity": "101%"}
{"Compound": "NS(=O)(=O)c1cc(C(=O)O)cc(N2CCCC2)c1Oc1ccccc1", "remaining activity": "99%"}
{"Compound": "Nc1nc2[nH]c(=O)cnc2c(=O)[nH]1", "remaining activity": "92.4%"}
{"Compound": "Cn1c(=O)c2c(ncn2CCO)n(C)c1=O", "remaining activity": "106%"}
{"data": "Study 2", "SMILES": "COc1cccc(CNC(=O)c2nc3scc(COCc4ccc(C(=O)O)cc4)c3c(=O)[nH]2)c1", "read-out": "cell-free assay", "method": "competition with immobilised ligand", "concentration": "1 µM"}
{"target": "PIM2 (Homo sapiens, UniProt Q9P1W9)", "remaining binding": "100%"}
{"target": "CLK3 (Homo sapiens, UniProt P49761)", "remaining binding": "100%"}
{"target": "EGFR (Homo sapiens, UniProt P00533)", "remaining binding": "69.3%"}
{"target": "MST1R (Homo sapiens, UniProt Q04912)", "remaining binding": "81.9%"}
{"target": "MAPK10 (Homo sapiens, UniProt P53779)", "remaining binding": "76.6%"}
{"target": "RIOK2 (Homo sapiens, UniProt Q9BVS4)", "remaining binding": "72.4%"}
{"data": "Study 3", "target": "Serine/threonine-protein kinase pim-2 (PIM2, Homo sapiens, UniProt Q9P1W9)", "read-out": "enzyme activity", "action": "inhibitor", "concentration": "0.5 µM", "reference": "control"}
{"Structure (SMILES)": "COc1cc2nccc(Oc3ccc(NC(=S)NC(=O)c4ccccc4C)cc3)c2cc1OC", "remaining activity [%]": 117}
{"Structure (SMILES)": "NCCNc1ncc(C(N)=O)c(Nc2cccc(C(F)(F)F)c2)n1", "remaining activity [%]": 98.4}
{"Structure (SMILES)": "COc1cc2ncnc(Nc3ccc(Oc4ccccc4)cc3)c2cc1OC", "remaining activity [%]": 107}
{"Structure (SMILES)": "Nc1ccc2ncnc(NCCc3ccc(Oc4ccccc4)cc3)c2c1", "remaining activity [%]": 119}
{"Structure (SMILES)": "COc1ccc(OC)c2c(=S)c3ccccc3[nH]c12", "remaining activity [%]": 103}
{"Structure (SMILES)": "O=S(=O)(c1cccc2cnccc12)N1CCCNCC1", "remaining activity [%]": 93.2}
{"Structure (SMILES)": "COc1ccc(CNC(=O)Nc2ncc([N+](=O)[O-])s2)cc1", "remaining activity [%]": 94.5}
{"Structure (SMILES)": "CCOC(=O)c1c(C)[nH]c(/C=C2\\C(=O)Nc3ccccc32)c1C", "remaining activity [%]": 97.7}
{"Structure (SMILES)": "O=C1NC(=O)C(c2cn(CCCO)c3ncccc23)=C1c1cnccn1", "remaining activity [%]": 92.7}
{"Structure (SMILES)": "Nc1[nH]nc2nc3ccccc3nc12", "remaining activity [%]": 105}
{"Structure (SMILES)": "CNC(=O)c1cc(Oc2ccc(NC(=O)Nc3ccc(Cl)c(C(F)(F)F)c3)cc2)ccn1", "remaining activity [%]": 103}
{"Structure (SMILES)": "O=C1NC(=O)C(c2cn(CCCn3ccnc3)c3ccccc23)=C1Nc1ccccc1", "remaining activity [%]": 102}
{"Structure (SMILES)": "Oc1ccc(-c2nc(-c3ccncc3)c(-c3ccc(F)cc3)[nH]2)cc1", "remaining activity [%]": 106}
{"Structure (SMILES)": "CC(C)[C@H](CO)Nc1nc(Nc2cc(N)cc(Cl)c2)c2ncn(C(C)C)c2n1", "remaining activity [%]": 113}
{"Structure (SMILES)": "O=C(O)c1ccc2c3c1cccc3c(=O)n1c3ccccc3nc21", "remaining activity [%]": 41.7}
{"data": "Study 4", "SMILES": "CC(=O)N[C@@H](Cc1c[nH]c2ccccc12)C(=O)N[C@@H](CCC(=O)C=[N+]=[N-])C(=O)OC(C)C", "matrix": "EL4 tumour", "dose": "dose not given", "reference": "vehicle"}
{"test": "refers to: nicotinamide riboside", "system": "Mus musculus", "log2 fold change": 0.00367}
{"test": "refers to: ADP", "system": "mouse, EL4 tumour-bearing", "log2 fold change": 1.07}
{"test": "refers to: phenyllactate", "system": "Mus musculus", "log2 fold change": -1.27}
{"test": "refers to: xanthine", "system": "mouse, EL4 tumour-bearing", "log2 fold change": 0.34}
{"test": "refers to: cinnamoylglycine", "system": "mouse, EL4 tumour-bearing", "log2 fold change": 1.06}
{"test": "refers to: gamma-glutamylleucine", "system": "mouse, EL4 tumour-bearing", "log2 fold change": 0.442}
{"note": "Repeated from above (study 1):"}
{"Compound": "CC(=O)O[C@]1(C(C)=O)CC[C@H]2[C@@H]3C=C(C)C4=CC(=O)CC[C@]4(C)[C@H]3CC[C@@]21C", "remaining activity": "101% and 95.1%"}
{"Compound": "O=Nc1c(-c2c(O)[nH]c3ccccc23)[nH]c2ccccc12", "remaining activity": "112% and 95%"}
{"Compound": "Nc1nc(=O)c2nc(CNc3ccc(C(=O)N[C@@H](CCC(=O)O)C(=O)O)cc3)cnc2[nH]1", "remaining activity": "101%"}
{"Compound": "CNC1CCCN(c2c(F)cc3c(=O)c(C(=O)O)cn(C4CC4)c3c2OC)C1 (stereo not shown)", "remaining activity": "94%"}
{"Compound": "NC(N)=NC(N)=Nc1ccccc1", "remaining activity": "99.6%"}
{"Compound": "CC(N)C(=O)OC(C)(C)Cc1ccc(Cl)cc1 (racemic)", "remaining activity": "101%"}
